Results pooled from the literature.
Each line is one published result; not all experiments were run side by side. Values joined by “and” are separate records of one study, mostly repeats; a detail may differ. Numbers after ± are the reported error.

| Structure (SMILES) | target or system | assay | test system | conditions | how to read | quantity | result |
| --- | --- | --- | --- | --- | --- | --- | --- |
| N=C(N)NCCC[C@@H]1NC(=O)[C@H](CCCNC(=N)N)NC(=O)[C@@H](Cc2ccc3ccccc3c2)NC(=O)[C@H](Cc2c[nH]c3ccccc23)NC(=O)[C@@H](Cc2ccc3ccccc3c2)NC(=O)[C@@H](CCCNC(=N)N)NC(=O)[C@@H](CCCNC(=N)N)NC1=O | MRC5 | cell growth or viability, MTS |  | 200 µg/mL, 24 h |  | viability | 61 to 65% |
| CN1CCCN(c2cnc3c(cc(C(=O)NCc4ccc(Cl)cc4)c(=O)n3CC(=O)N3CC(C)(F)C3)n2)C1=O | MRC5 | cell growth or viability, CCK-8 |  | 40 µM |  | viability | 100% |
| Cc1ccc(-n2cc(CSc3nc4ccccc4n3Cc3cn(-c4ccc(C)cc4)nn3)nn2)cc1 | HEK293 | MTT |  | 3.91 ppm |  | viability | 93.9% |
| [BH3-][P+]1(c2ccccc2)CCCCC1 | HaCaT | trypan blue |  | IC50, 72 h |  | viability | 96.7% |
| O=C(NCCOc1ccc(F)cc1)c1ccc([C@H]2[C@@H](F)[C@@H](F)C[C@@H](F)[C@H]2F)cc1 |  | liver microsome stability | mouse liver microsomes | 1 µM |  | hepatic clearance | 62 mL/min/kg |
| COc1cc(N2CCN(C(=O)CCOCCNC(=O)[C@@H]3CCCN3)CC2)ccc1Nc1ncc(Cl)c(Nc2ccccc2P(C)(C)=O)n1 | NCI-H3122 | CCK-8 |  | 5 µM, 48 h |  | viability | 16% and 18% and 19% |
| COc1ccc(C[C@H]2CO[C@H](c3ccc(OC)c(OC)c3)[C@H]2COC(=O)C2CCCCCC2)cc1OC | HEK293/NF-κB-luc | CellTracker Green CMFDA |  | 20 µM, 4.5 h, serum-free medium | relative to: stimulated untreated cells | viability | 87 ± 4% |
| N=C(N)NCCC[C@@H]1NC(=O)[C@@H](CCCNC(=N)N)NC(=O)[C@H](CCCNC(=N)N)NC(=O)[C@@H](Cc2ccc3ccccc3c2)NC(=O)[C@@H](Cc2ccc3ccccc3c2)NC(=O)[C@@H](Cc2ccc3ccccc3c2)NC(=O)[C@@H](CCCNC(=N)N)NC1=O | MRC5 | cell growth or viability, MTS |  | 150 µg/mL, 24 h |  | viability | 61 to 70% |
| C/C=C(/C)C(=O)OC[C@H]1[C@@H](Cc2ccc(C(C)(C)C)cc2)CO[C@@H]1c1ccc(F)cc1 | HEK293/NF-κB-luc | CellTracker Green CMFDA |  | 20 µM, 4.5 h, serum-free medium | relative to: stimulated untreated cells | viability | 95 ± 10% |
| COc1ccc(CSC2C3=C(CCCC3=O)Oc3ccc(Br)cc32)cc1 (stereo not shown) | 3T3-L1 mature adipocytes | MTT |  | IC20, 6 days, lipolysis conditions | relative to: untreated | viability | 105% |
| CN1CCCNC(=O)c2cccc(c2)C(=O)NCCCN(C)CCCNc2cccc3c2C(=O)c2cccc(c2C3=O)NCCC1 | HeLa | cell growth or viability, CCK-8 |  | 5 µM, 48 h |  | viability | 5.38% |
| N=C(N)NCCC[C@@H]1NC(=O)[C@H](CCCNC(=N)N)NC(=O)[C@@H](CCCNC(=N)N)NC(=O)[C@@H](CCCNC(=N)N)NC(=O)[C@@H](C(c2ccccc2)c2ccccc2)NC(=O)[C@@H](Cc2c[nH]c3ccccc23)NC(=O)[C@@H](C(c2ccccc2)c2ccccc2)NC1=O | MRC5 | cell growth or viability, MTS |  | 200 µg/mL, 24 h |  | viability | 62% |
| Nc1ncc(-c2ccc(C3CCCCC3)cc2)cn1 |  | liver microsome stability | cynomolgus liver microsomes | 1 µM |  | hepatic clearance | 37 mL/min/kg |
| O=CCNCCOn1c(=O)n(OCCNCCO)c(=O)n(OCCNCCOn2c(=O)n(OCCNCCO)c(=O)n(OCCNCCO)c2=O)c1=O | HUVEC | cell growth or viability, MTT |  | 50 µg/mL, 24 h |  | viability | 60.5% |
| COc1ccc(C[C@H]2CO[C@H](c3ccc(OC)c(OC)c3)[C@H]2COC(=O)C(C)(C)C)cc1OC | HEK293/NF-κB-luc | CellTracker Green CMFDA |  | 20 µM, 4.5 h, serum-free medium | relative to: stimulated untreated cells | viability | 84 ± 7% |
| COc1cc(/C=C/C=C2\SC(=S)NC2=O)ccc1O | HeLa | CellTiter-Glo |  | 2.5 µM, 24 h, unit not given | relative to: untreated | viability | 0.994 and 0.999 |
